{"data": "Results from different studies", "note": "A part holds a random share of what one study measured.", "sequence of UniProt Q9Y5S2 (whole entry, looked up)": "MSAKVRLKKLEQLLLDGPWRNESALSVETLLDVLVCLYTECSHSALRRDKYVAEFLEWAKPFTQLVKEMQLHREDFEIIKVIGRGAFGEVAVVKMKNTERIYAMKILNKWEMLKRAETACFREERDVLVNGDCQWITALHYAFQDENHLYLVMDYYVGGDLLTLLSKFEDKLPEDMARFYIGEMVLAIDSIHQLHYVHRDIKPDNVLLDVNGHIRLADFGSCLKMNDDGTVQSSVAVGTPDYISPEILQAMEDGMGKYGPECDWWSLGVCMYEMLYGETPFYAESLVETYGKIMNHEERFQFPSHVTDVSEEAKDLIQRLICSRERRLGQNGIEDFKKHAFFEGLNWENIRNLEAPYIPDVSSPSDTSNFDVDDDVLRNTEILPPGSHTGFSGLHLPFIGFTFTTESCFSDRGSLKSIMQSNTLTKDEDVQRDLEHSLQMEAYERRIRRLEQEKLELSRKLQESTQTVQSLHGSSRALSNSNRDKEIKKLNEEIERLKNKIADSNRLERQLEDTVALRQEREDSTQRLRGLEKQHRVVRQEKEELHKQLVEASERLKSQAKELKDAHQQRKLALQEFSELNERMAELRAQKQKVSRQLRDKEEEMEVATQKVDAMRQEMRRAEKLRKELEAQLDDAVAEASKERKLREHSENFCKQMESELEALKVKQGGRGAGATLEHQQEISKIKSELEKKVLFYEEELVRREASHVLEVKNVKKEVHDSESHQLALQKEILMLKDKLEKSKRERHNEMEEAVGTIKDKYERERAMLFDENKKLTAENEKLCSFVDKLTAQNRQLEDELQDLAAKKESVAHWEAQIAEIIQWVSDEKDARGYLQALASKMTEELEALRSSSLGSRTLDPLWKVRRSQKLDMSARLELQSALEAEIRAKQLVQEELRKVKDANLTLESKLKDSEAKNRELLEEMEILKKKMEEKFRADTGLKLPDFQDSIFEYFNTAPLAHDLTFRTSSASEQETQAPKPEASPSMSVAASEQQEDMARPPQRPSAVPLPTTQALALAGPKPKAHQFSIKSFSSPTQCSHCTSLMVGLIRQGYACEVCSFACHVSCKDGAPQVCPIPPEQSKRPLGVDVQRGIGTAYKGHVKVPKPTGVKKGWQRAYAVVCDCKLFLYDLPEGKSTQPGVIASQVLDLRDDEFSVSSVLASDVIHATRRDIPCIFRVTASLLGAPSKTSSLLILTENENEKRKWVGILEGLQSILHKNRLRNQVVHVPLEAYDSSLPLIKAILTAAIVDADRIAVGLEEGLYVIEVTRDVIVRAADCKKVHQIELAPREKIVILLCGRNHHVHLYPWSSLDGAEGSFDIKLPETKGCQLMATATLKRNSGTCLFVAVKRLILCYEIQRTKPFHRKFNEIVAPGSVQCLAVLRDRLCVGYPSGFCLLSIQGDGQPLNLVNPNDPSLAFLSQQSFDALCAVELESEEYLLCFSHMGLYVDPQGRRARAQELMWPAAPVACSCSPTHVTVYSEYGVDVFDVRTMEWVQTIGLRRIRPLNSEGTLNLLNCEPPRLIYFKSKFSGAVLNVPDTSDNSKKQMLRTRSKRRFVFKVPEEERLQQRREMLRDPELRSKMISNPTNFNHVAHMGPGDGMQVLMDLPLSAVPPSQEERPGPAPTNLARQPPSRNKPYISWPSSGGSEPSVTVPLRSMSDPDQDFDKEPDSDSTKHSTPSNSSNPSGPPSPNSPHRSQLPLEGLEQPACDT", "sequence of UniProt Q8N4C8 (whole entry, looked up)": "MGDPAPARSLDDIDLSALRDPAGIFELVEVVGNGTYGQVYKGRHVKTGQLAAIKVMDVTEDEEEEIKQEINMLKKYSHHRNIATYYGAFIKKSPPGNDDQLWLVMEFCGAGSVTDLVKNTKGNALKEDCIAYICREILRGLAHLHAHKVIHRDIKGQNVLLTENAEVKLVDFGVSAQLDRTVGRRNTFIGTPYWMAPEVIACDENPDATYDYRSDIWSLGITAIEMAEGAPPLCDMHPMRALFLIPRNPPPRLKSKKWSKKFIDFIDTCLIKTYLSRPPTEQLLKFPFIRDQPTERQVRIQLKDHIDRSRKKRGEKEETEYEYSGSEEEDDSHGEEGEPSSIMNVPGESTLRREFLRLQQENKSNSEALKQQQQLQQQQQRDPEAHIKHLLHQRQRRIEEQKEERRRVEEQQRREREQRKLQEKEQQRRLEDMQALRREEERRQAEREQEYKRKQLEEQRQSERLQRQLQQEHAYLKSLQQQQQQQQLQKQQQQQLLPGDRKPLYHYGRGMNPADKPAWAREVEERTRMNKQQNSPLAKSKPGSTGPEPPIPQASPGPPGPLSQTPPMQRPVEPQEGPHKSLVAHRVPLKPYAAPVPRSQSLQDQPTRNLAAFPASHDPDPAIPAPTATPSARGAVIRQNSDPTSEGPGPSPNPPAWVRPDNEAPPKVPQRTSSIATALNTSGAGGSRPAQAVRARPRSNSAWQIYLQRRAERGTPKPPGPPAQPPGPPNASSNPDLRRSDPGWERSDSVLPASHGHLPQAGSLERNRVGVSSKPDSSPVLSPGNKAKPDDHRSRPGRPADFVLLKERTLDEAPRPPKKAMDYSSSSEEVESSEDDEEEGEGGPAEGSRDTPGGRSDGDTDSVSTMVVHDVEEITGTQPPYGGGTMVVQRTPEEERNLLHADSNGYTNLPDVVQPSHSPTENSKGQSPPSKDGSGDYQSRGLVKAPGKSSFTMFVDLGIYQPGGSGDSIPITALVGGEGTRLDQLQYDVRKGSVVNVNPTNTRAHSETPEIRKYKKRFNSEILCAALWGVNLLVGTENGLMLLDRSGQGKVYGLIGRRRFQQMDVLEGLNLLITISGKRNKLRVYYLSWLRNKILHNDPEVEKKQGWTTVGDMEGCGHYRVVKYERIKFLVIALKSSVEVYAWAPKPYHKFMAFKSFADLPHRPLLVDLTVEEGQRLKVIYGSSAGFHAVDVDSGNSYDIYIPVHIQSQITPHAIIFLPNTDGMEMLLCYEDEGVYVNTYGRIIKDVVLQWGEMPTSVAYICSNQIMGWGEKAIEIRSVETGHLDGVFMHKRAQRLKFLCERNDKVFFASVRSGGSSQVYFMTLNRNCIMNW", "sequence of UniProt Q16566 (whole entry, looked up)": "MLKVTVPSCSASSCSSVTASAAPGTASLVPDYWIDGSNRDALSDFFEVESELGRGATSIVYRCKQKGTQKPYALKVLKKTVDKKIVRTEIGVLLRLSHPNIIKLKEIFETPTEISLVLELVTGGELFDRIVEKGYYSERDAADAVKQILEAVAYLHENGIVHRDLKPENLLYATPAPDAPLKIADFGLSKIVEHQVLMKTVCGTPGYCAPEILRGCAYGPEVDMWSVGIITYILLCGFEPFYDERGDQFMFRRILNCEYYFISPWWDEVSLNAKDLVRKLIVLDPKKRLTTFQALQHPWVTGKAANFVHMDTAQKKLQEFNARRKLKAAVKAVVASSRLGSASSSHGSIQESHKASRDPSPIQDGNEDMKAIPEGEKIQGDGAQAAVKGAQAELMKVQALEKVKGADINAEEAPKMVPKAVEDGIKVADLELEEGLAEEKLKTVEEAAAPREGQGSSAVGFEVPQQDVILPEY", "sequence of UniProt Q15759 (whole entry, looked up)": "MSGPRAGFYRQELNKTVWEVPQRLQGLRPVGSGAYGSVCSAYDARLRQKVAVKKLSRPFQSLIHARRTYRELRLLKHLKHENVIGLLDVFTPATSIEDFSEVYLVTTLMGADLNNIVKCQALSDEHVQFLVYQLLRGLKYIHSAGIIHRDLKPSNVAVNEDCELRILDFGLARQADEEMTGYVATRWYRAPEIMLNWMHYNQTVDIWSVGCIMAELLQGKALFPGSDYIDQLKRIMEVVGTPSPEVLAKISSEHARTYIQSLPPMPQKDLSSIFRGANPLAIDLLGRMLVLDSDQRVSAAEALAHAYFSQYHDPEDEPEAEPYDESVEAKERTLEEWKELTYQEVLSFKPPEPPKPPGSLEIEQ", "sequence of UniProt Q8N568 (whole entry, looked up)": "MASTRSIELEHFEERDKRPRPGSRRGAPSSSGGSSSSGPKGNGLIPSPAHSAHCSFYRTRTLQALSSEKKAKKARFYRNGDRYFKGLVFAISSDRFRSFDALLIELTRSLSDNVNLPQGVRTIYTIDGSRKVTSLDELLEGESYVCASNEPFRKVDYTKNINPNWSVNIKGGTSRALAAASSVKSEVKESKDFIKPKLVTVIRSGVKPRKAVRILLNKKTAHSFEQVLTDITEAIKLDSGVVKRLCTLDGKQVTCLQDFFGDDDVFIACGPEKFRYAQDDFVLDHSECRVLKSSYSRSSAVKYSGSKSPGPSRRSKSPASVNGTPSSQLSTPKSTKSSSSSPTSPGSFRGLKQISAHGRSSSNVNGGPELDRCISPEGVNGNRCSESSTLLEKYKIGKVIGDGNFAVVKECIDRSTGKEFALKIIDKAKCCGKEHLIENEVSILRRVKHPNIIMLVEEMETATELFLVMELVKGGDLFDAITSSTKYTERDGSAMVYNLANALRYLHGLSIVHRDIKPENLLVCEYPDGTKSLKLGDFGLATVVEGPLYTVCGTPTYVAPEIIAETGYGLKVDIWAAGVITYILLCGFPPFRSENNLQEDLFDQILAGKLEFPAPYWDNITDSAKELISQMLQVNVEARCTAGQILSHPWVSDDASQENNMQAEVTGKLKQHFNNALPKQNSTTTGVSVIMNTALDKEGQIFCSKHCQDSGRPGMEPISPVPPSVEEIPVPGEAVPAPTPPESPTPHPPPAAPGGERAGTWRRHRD", "sequence of UniProt P50750 (whole entry, looked up)": "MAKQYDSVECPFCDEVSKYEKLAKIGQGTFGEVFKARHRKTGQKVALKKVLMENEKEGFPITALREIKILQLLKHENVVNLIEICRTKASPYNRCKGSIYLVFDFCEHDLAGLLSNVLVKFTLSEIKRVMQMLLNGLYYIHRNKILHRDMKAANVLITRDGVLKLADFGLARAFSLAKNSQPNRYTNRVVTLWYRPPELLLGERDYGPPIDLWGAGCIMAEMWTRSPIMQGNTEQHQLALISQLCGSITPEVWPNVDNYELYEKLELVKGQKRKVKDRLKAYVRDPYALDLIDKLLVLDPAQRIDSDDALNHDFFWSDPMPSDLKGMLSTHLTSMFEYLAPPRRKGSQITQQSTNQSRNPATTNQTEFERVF"}
{"data": "Series 1", "cell line": "A-375", "tested at": "100 µM", "time": "18 h"}
{"SMILES": "CCOC(=O)CC(SP(=S)(OC)OC)C(=O)OCC (centres unmarked)", "viability": "84.8%"}
{"SMILES": "CCO[C@H]1O[C@@H]2O[C@@]3(C)CC[C@H]4[C@H](C)CC[C@@H]([C@H]1C)[C@@]24OO3", "viability": "45.8%"}
{"SMILES": "C[C@@H]1O[C@@H](O[C@H]2C[C@@H](O)[C@]3(CO)[C@H]4[C@H](O)C[C@]5(C)[C@@H](C6=CC(=O)OC6)CC[C@]5(O)[C@@H]4CC[C@]3(O)C2)[C@H](O)[C@H](O)[C@H]1O", "viability": "44.5%"}
{"data": "Series 2", "SMILES": "CCn1cnc2c(Nc3cccc(Cl)c3)nc(N[C@H]3CCCC[C@H]3N)nc21", "observed": "enzyme activity", "mode": "inhibitor", "tested at": "0.5 µM", "baseline": "control"}
{"target": "DCLK2 (Homo sapiens, UniProt Q8N568)", "remaining activity [%]": 93.1}
{"target": "CAMK4 (Homo sapiens, UniProt Q16566)", "remaining activity [%]": 103}
{"target": "ROCK1 (Homo sapiens, UniProt Q13464)", "remaining activity [%]": 96.5}
{"target": "MAPK11 (Homo sapiens, UniProt Q15759)", "remaining activity [%]": 94.1}
{"target": "MINK1 (Homo sapiens, UniProt Q8N4C8)", "remaining activity [%]": 95.2}
{"target": "Cyclin-dependent kinase 9, with cyclin K (CDK9, Homo sapiens, UniProt P50750)", "remaining activity [%]": 46.9}
{"target": "CDC42BPB (Homo sapiens, UniProt Q9Y5S2)", "remaining activity [%]": 97.7}
{"data": "Series 3", "Structure (SMILES)": "CNC(=O)c1ccc(-c2cnn3ccc(C(=O)N(C)c4ccc(Cl)c(C(=O)OC)c4)cc23)cc1", "organism": "Cryptosporidium parvum", "technique": "faecal qPCR", "host": "IFN-γ knockout mouse", "time": "day 0 post treatment"}
{"dose": "10 mg/kg", "oocyst shedding [log oocysts/g faeces]": 4.03}
{"dose": "1 mg/kg", "oocyst shedding [log oocysts/g faeces]": 4.16}
{"dose": "3 mg/kg", "oocyst shedding [log oocysts/g faeces]": 4.38}
{"data": "Mixed results"}
{"Structure (SMILES)": "COc1ccc([C@@]23Oc4cc(OC)cc(OC)c4[C@]2(O)[C@@H](O)C[C@H]3c2ccccc2)cc1", "target": "Eukaryotic initiation factor 4A-I (EIF4A1, Homo sapiens, UniProt P60842)", "test": "RNA clamping, fluorescence polarization", "setting": "concentration not given, together with: FAM-labelled poly r(AG)8 RNA", "scale": "higher = more clamping", "measurement": "fluorescence polarization change", "value": "25.6 mP"}
